# Measured values from different studies.
# Each numbered part is a random draw from the data of one study; scales do not carry over between parts.

# Set 1
# Target: 5-hydroxytryptamine receptor 1D (HTR1D, Homo sapiens, UniProt P28221)
# Chain of UniProt P28221 (whole entry, looked up): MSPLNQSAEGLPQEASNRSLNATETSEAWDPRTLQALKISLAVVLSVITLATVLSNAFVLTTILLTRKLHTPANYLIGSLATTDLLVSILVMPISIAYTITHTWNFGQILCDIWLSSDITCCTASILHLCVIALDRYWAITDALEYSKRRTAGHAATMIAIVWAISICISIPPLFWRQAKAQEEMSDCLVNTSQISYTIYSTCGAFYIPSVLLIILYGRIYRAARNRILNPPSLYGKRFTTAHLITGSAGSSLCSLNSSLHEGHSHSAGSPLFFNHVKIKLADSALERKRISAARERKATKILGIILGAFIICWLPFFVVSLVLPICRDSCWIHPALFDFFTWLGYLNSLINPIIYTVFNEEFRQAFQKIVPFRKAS
# Observed: ligand displacement
# Method: radioligand
# Tested at: 10 µM
SMILES,inhibition [%]
O=C(NCc1ncc(C(F)(F)F)cc1Cl)c1ccc2c(c1)C1(CCS(=O)(=O)CC1)[C@H](C1CC1)N2S(=O)(=O)c1ccc(F)cc1,-13.3
O=C(O)c1cc(-c2ccc(C3CCNCC3)cc2)c2ccc(-c3ccc(C(F)(F)F)cc3)cc2c1,33.6
CCOC(=O)c1cc2cc(-c3cc(C(=O)NCc4ccc(C(=O)O)cc4)nn3C)ccc2[nH]1,3.64
CCCCN(CCCC)C(=O)CN1C[C@@H](c2cc(OC)c3c(c2)OCO3)[C@H](C(=O)O)[C@H]1CC(C)(C)CCC,-3.72
O=c1nc(-c2ccccn2)sc2ccccc12,-10.2
Cn1nc(C(=O)NCc2ccc(C(=O)O)cc2)cc1-c1ccc2[nH]ccc2c1,10.1
O=S(=O)(NC1CCC(c2cc(F)ccc2F)(S(=O)(=O)c2ccc(Cl)cc2)CC1)C(F)(F)F (centres unmarked),13.9
Cc1ccc(-c2cnc([C@@]3(O)CC[C@H](C(=O)O)C(C)(C)C3)s2)cc1Nc1cccc(C(F)(F)F)n1,16.5
CCS(=O)(=O)c1cc2cc(C[C@@](O)(CC(C)(C)c3ccc(F)cc3C(N)=O)C(F)(F)F)[nH]c2cn1,7.98

# Set 2
# Host: mouse
# Matrix: microsomes or S9
# Tested at: 2 µM
# Time: 0.5 h
Structure (SMILES),remaining compound [%]
c1ccc2c(c1)OCC(c1noc(CCc3c[nH]nn3)n1)O2 (centres unmarked),> 100
Cc1ccc2c(c1)N(C(C)C)N=C(C(=O)N1CCOCC1)S2(=O)=O,72.6
Clc1ccccc1C1(c2ccnc(C3CCCC3)n2)CCNCC1,1.44
COc1nccnc1Oc1cc(F)c(CN2CCCC2)c(Cl)c1,0.82
Cc1ccc(S(=O)(=O)Nc2c(C)[nH]c(=O)[nH]c2=O)cc1,45.4
COc1ccc(C2N(C(C)=O)c3ccccc3N2S(=O)(=O)c2ccc(C)cc2)cc1 (centres unmarked),0
COc1cc(N2CCN(C(C)=O)CC2)ccc1Nc1ncc(Cl)c(Nc2ccc(N3CCN(S(C)(=O)=O)CC3)cc2OC)n1,0
CCCc1cc(O)nc(N2CCN(c3ccc(Cl)cc3)CC2)n1,6.64
Cn1cc(-c2ccc(=O)n(CC3CN(c4ncc(OCCN5CCCC5)cn4)CCO3)n2)cn1 (centres unmarked),74.3
COC(=O)[C@@H]1CCCN1C(=O)c1ccc(OC(c2ccc(Cl)cc2)c2ccc(Cl)cc2Cl)c(F)c1F (some centres unmarked),46.1

# Set 3
# Target: Bromodomain-containing protein 4, BD1 (BRD4, Homo sapiens, UniProt O60885)
# Observed: acetyl-histone H4 peptide binding
# Method: AlphaScreen displacement
# Tested at: 50 µM
SMILES,inhibition
Cn1cnc2c(NCc3ccccc3)nc(NCCO)nc21,16.4%
COC(=O)Cn1cc(C=C2SC(=O)NC2=O)c2ccccc21,14.2%
C[C@@H](N)[C@H]1CC[C@H](C(=O)Nc2ccncc2)CC1.Cl.Cl,0.7%
O=C(CCCN1CC=C(n2c(=O)[nH]c3ccccc32)CC1)c1ccc(F)cc1,30.9%
Cc1ccc2c(c1)C(=NNC(=O)c1ccc(Cl)cc1)C(=O)N2,16.2%
Cl.Cl.O=C1c2c(O)ccc(O)c2C(=O)c2c(NCCNCCO)ccc(NCCNCCO)c21,99%

# Set 4
# Organism: Sarcocystis neurona
# Observed: parasite activity
# Tested at: 10 µM
# Time: 96 h
Compound,activity class
Cc1ccc(-c2cc(C(F)(F)F)nn2-c2ccc(S(N)(=O)=O)cc2)cc1,inactive
C[C@]12C[C@H](O)[C@H]3[C@@H](CCC4=CC(=O)CC[C@@]43C)[C@@H]1CC[C@@H]2C(=O)CO,inactive
CN(C)CCOC(c1ccc(Cl)cc1)c1ccccn1 (centres unmarked),inactive
CC1COc2c(N3CCN(C)CC3)c(F)cc3c(=O)c(C(=O)O)cn1c23 (centres unmarked),inactive
Cc1[nH]cnc1CN1CCc2c(c3ccccc3n2C)C1=O,inactive
Fc1ccc([C@@H]2CCNC[C@H]2COc2ccc3c(c2)OCO3)cc1,inactive
CC(=O)[C@H]1CC[C@H]2[C@@H]3CCC4=CC(=O)CC[C@]4(C)[C@H]3CC[C@]12C,inactive
CN1CCN(CC/C=C2/c3ccccc3Sc3ccc(S(=O)(=O)N(C)C)cc32)CC1,active
CO[C@@H]1[C@@H](O[C@@H]2O[C@H](C)[C@@H](O[C@H]3C[C@@](C)(O)[C@@H](OC(=O)CC(C)C)[C@H](C)O3)[C@H](N(C)C)[C@H]2O)[C@@H](CC=O)C[C@@H](C)[C@@H](O)/C=C/C=C/C[C@@H](C)OC(=O)C[C@H]1OC(C)=O,inactive
CNNCc1ccc(C(=O)NC(C)C)cc1,inactive

# For quick reference, copied from above (set 3):
SMILES,inhibition
COC(=O)Cn1cc(C=C2SC(=O)NC2=O)c2ccccc21,14.2%
C[C@@H](N)[C@H]1CC[C@H](C(=O)Nc2ccncc2)CC1.Cl.Cl,0.7%
O=C(CCCN1CC=C(n2c(=O)[nH]c3ccccc32)CC1)c1ccc(F)cc1,30.9%
Cc1ccc2c(c1)C(=NNC(=O)c1ccc(Cl)cc1)C(=O)N2,16.2%
